Measurements collected from several papers.
Protocols differ between the studies behind these lines.
TDP1: Tyrosyl-DNA phosphodiesterase 1 (TDP1, Homo sapiens, UniProt Q9NUW8)
Sequence of UniProt Q9NUW8 (whole entry, looked up): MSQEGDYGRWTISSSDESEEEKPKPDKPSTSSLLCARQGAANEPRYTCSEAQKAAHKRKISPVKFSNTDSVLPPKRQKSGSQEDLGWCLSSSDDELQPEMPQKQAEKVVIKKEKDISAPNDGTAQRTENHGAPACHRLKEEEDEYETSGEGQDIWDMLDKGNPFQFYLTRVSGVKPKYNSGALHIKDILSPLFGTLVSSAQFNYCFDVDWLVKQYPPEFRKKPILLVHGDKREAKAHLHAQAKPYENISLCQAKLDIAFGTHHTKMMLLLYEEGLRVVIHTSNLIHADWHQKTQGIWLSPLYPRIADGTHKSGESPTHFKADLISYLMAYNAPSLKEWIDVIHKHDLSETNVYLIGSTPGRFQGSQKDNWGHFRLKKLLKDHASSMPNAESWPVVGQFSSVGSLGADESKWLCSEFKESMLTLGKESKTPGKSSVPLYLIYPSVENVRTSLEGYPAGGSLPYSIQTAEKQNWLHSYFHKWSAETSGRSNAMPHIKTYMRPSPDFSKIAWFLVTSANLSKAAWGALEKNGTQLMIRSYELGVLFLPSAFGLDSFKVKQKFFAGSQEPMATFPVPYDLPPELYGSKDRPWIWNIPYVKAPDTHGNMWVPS

Compound	target or system	test	system	setting	scale	endpoint	value
CC(C)[C@@H]1NC(=O)[C@@H](CCCNC(=N)N)NC(=O)[C@H]([C@@H](C)O)NC(=O)[C@@H](CCCN)NC(=O)[C@H](Cc2ccc(F)cc2)NC(=O)[C@@H](Cc2ccccc2)NC1=O	Balamuthia mandrillaris	parasite growth, ATP luminescence	–	–	–	IC50	9.09 µM
COC1CN([C@H]2CC[C@H]([C@@]3(C)Oc4c(Cl)cc(C(=O)NCc5c(SC)cc(C)[nH]c5=O)c(C)c4O3)CC2)C1	–	RNA-seq, refers to: HPGD	human, whole blood	dose not given, 24 h	baseline: pretreatment baseline	log2 fold change	2.69
CC(C)CC(c1c[nH]c2ccccc12)c1c[nH]c2ccccc12	Phocaeicola dorei	bacterial growth, inhibitor, OD600	–	anaerobic	–	IC50	> 50 µM
O=C(O)c1ccc(Nc2c(-c3ccccc3)nc3ccc(CON=Cc4ccc(OCC(=O)N5CCNC5=O)cc4)cn23)cc1	TDP1	enzyme activity, inhibitor	–	100 µM, unpurified compound	–	inhibition	113%
Cc1ncsc1-c1ccc(C(C)NC(=O)C2CC(O)CN2C(=O)C(NC(=O)CCCCCCCCCCN2CCCC(Nc3ncc(Cl)c(Nc4ccccc4S(=O)(=O)C(C)C)n3)C2)C(C)(C)C)cc1 (stereo not drawn)	22Rv1	RNA-seq, refers to: MAST4 mRNA	–	concentration not given	baseline: DMSO	log2 fold change	-1.16
Nc1nc(-c2ccc(OC(F)(F)F)cc2)nc2[nH]nc(Nc3ccc(Cl)cc3)c12	rhinovirus A2	viral cytopathic effect	HeLa	–	–	IC50	3.1 µM
C=CC(=O)Nc1cccc(Cn2ncc3cnc(Nc4cnn(CCOC)c4)nc32)c1	human FLT3(ITD)	KINOMEscan	–	100 nM	baseline: control	binding	38%
N=C(N)c1ccc(OCCCCCOc2ccc(C(=N)N)cc2)cc1	Balamuthia mandrillaris	parasite growth	–	–	–	IC50	18 µM
c1ccc(CC(c2c[nH]c3ccccc23)c2c[nH]c3ccccc23)cc1	Phocaeicola dorei	bacterial growth, inhibitor, OD600	–	anaerobic	–	IC50	> 50 µM
Nc1ncc(-c2cc(-c3cnn(CC(F)(F)F)c3)ncc2F)nc1C(=O)NC1CNCC(F)C1 (stereo not drawn)	ABL1-nonphosphorylated	KINOMEscan competition binding	–	1 µM	baseline: DMSO control	remaining binding	100%
O=C(CCCc1cn(C[C@H]2O[C@@H]3O[C@H]4[C@H](O)[C@@H](O)[C@@H](O[C@H]5[C@H](O)[C@@H](O)[C@@H](O[C@H]6[C@H](O)[C@@H](O)[C@@H](O[C@H]7[C@H](O)[C@@H](O)[C@@H](O[C@H]8[C@H](O)[C@@H](O)[C@@H](O[C@H]9[C@H](O)[C@@H](O)[C@@H](O[C@H]2[C@H](O)[C@H]3O)O[C@@H]9Cn2cc(CCCC(=O)N[C@H]3CCOC3=O)nn2)O[C@@H]8Cn2cc(CCCC(=O)N[C@H]3CCOC3=O)nn2)O[C@@H]7Cn2cc(CCCC(=O)N[C@H]3CCOC3=O)nn2)O[C@@H]6Cn2cc(CCCC(=O)N[C@H]3CCOC3=O)nn2)O[C@@H]5Cn2cc(CCCC(=O)N[C@H]3CCOC3=O)nn2)O[C@@H]4Cn2cc(CCCC(=O)N[C@H]3CCOC3=O)nn2)nn1)N[C@H]1CCOC1=O	Escherichia coli	LuxR reporter, antagonist	DH5α sensor strain	with: OHHL 200 nM	–	IC50	10 to 20 µM
c1ccc2c(Cc3c(-c4c[nH]c5ccccc45)[nH]c4ccccc34)c[nH]c2c1	Phocaeicola dorei	bacterial growth, inhibitor, OD600	–	anaerobic	–	IC50	> 50 µM
O=C(O)c1ccc(Nc2c(-c3ccccc3)nc3ccc(CON=Cc4ccc(-c5cccs5)s4)cn23)cc1 (mixture of isomers)	TDP1	enzyme activity, inhibitor	–	100 µM, unpurified compound	–	inhibition	24.4%
COC1C=COC2(C)Oc3c(C)c(O)c4c(c3C2=O)C2=NC3(CCN(CC(C)C)CC3)NC2=C(NC(=O)C(C)=CC=CC(C)C(O)C(C)C(O)C(C)C(OC(=O)Nc2cccnn2)C1C)C4=O (stereo not drawn)	Mycobacteroides abscessus	bacterial growth	subsp. abscessus K21 clinical isolate	–	–	IC50	0.025 µM
CCc1ccc(-c2nc(N)c3c(Nc4ccc(F)cc4)n[nH]c3n2)cc1	rhinovirus A2	viral cytopathic effect	HeLa	–	–	IC50	1.15 µM
O=C1Nc2ccccc2C1(c1c[nH]c2ccccc12)c1c[nH]c2ccccc12	Phocaeicola dorei	bacterial growth, inhibitor, OD600	–	anaerobic	–	IC50	> 50 µM
Nc1nc(-c2ccccc2)nc2[nH]nc(Nc3c(F)cccc3F)c12	rhinovirus A2	viral cytopathic effect	HeLa	–	–	IC50	14.2 µM
O=Cc1c[nH]c2ccccc12	Phocaeicola dorei	bacterial growth, inhibitor, OD600	–	anaerobic	–	IC50	> 50 µM
CC(C)[C@@H]1NC(=O)[C@@H](CCCNC(=N)N)NC(=O)[C@H]([C@@H](C)O)NC(=O)[C@@H](CCCN)NC(=O)[C@H](Cc2ccccc2)NC(=O)[C@@H](Cc2ccc(F)c(F)c2)NC1=O	Balamuthia mandrillaris	parasite growth, ATP luminescence	–	–	–	IC50	13.1 µM
Nc1nc(-c2ccccc2)nc2[nH]nc(Nc3ccc(OC(F)(F)F)cc3)c12	rhinovirus A2	viral cytopathic effect	HeLa	–	–	IC50	24.3 µM
CNCc1ccc2c(c1)N(C(=O)OCc1c(F)c(F)c(F)c(F)c1F)[C@H](CNC(=N)N)[C@H]2NC(=O)C(=O)Nc1ccc(Cl)c(F)c1	HIV-1	pseudovirus infection, Env pseudovirus neutralisation	TZM-bl, clade G isolate C1_B5	–	–	IC50	1.59 µM

Some of these lines once more:
Compound	target or system	test	system	setting	scale	endpoint	value
O=Cc1c[nH]c2ccccc12	Phocaeicola dorei	bacterial growth, inhibitor, OD600	–	anaerobic	–	IC50	> 50 µM
CC(C)[C@@H]1NC(=O)[C@@H](CCCNC(=N)N)NC(=O)[C@H]([C@@H](C)O)NC(=O)[C@@H](CCCN)NC(=O)[C@H](Cc2ccccc2)NC(=O)[C@@H](Cc2ccc(F)c(F)c2)NC1=O	Balamuthia mandrillaris	parasite growth, ATP luminescence	–	–	–	IC50	13.1 µM
